Measured values of several laboratories.
Lines come from different studies, so protocols differ. “And” joins repeats or separate records; there may be more than shown. ± gives the spread as reported. In brackets after ≈: the same amount, converted by molar mass.

| SMILES | organism | assay | system | conditions | scale | endpoint | value |
| --- | --- | --- | --- | --- | --- | --- | --- |
| C=C(NC(=O)c1csc(-c2nc3c(cc2O)-c2nc(cs2)C(=O)NC(C(C)O)C(=O)NC(=C(C)OC)c2nc(cs2)C(=O)NC2c4nc(cs4)C(=O)NC(COC(=O)c4c5c6c(cccc6n4O)COC(=O)C(OC4CC(C)(O)C(N(C)C)C(C)O4)C2OC5)c2nc-3cs2)n1)C(N)=O (stereo not shown) | Staphylococcus aureus | – | MRSA, 10 isolates | serum 25% | – | MIC50 | 0.0156 µg/mL (≈ 0.0109 µM) |
| CC(C)(C)NCC(SS(=O)(=O)O)c1ccccc1 (stereo not shown) | Schistosoma mansoni | – | mice | 600 mg/kg single dose, dosed day 15, perfused 44 | – | male worms recovered | 1 worms per mouse and 2 worms per mouse and 3 worms per mouse and 5 worms per mouse and 0 worms per mouse |
| O=c1[nH]cc(C(c2ccccc2F)c2c[nH]c(=O)[nH]c2=O)c(=O)[nH]1 | Human immunodeficiency virus 1 | viral replication, inhibitor, ELISA | – | 1 µg/mL | – | inhibition | 3% |
| COc1cc(C)c(-c2ccc(O)c3c2C[C@@H](C)N[C@@H]3C)c2cccc(O)c12 (single isomer, unassigned) | Plasmodium falciparum | asexual parasite proliferation, SYBR Green I fluorescence | clinical isolate SB_05, Mozambique | – | – | IC50 | 0.107 ± 0.0057 µM |
| O=c1[nH]cc(C(c2ccccc2)c2c[nH]c(=O)[nH]c2=O)c(=O)[nH]1 | Human immunodeficiency virus 1 | viral replication, inhibitor, ELISA | – | 1 µg/mL | – | inhibition | 4% |
| Cc1ncsc1-c1ccc(CNC(=O)[C@@H]2C[C@H](O)CN2C(=O)[C@@H](NC(=O)CN2CCN(C3CN(CCNC(=O)C[C@@H]4N=C(c5ccc(Cl)cc5)c5c(sc(C)c5C)-n5c(C)nnc54)C3)CC2)C(C)(C)C)cc1 | Spodoptera frugiperda | degrader, targeted LC-MS, measured: BRD3 | Sf9 | 1 µM | – | protein level | 149% and 152% and 165% and 128% |
| CCCOC(=O)N1c2cc(CNC)ccc2[C@H](NC(=O)C(=O)Nc2ccc(Cl)c(F)c2)[C@H]1CNC(=N)N | HIV-1 | viral infection, Env pseudovirus neutralization | TZM-bl, CRF01_AE | – | – | IC80 | > 100 µM |
| CC[C@H](C)[C@@H]1NC(=O)[C@@H]([C@@H](C)O)NC(=O)CNC(=O)[C@H](CC(=O)O)NC(=O)CNC(=O)[C@H](CC(=O)O)NC(=O)CNC(=O)[C@H]2CCCCN2C(=O)[C@@H](NC(=O)[C@H](CC(=O)O)NC(=O)/C=C/CCCCCCCCCC(C)C)CNC(=O)[C@@H]2CCCN2C1=O | Staphylococcus simulans | broth microdilution | 22, Mueller-Hinton broth, Mg2+ 10 mg/L | 16 h, 30 °C, added: Ca2+ 10 mM | – | MIC | 2 µg/mL (≈ 1.6 µM) |
| COc1cc(O)c(-c2cc(-c3cc(-c4c(O)cc(OC)c5c4C[C@@H](C)N[C@@H]5C)c4cc(C)cc(OC)c4c3O)c(O)c3c(OC)cc(C)cc23)c2c1[C@@H](C)N[C@H](C)C2 | Plasmodium falciparum | asexual parasite proliferation, SYBR Green I fluorescence | HB3 | – | – | IC50 | 0.181 ± 0.0076 µM |
| CCCCCCCCCC(=O)N[C@@H](Cc1c[nH]c2ccccc12)C(=O)N[C@H](CC(N)=O)C(=O)N[C@@H](CC(=O)O)C(=O)N[C@@H]1C(=O)NCC(=O)N[C@@H](CCCNC(=O)OC2/C=C/CCCCC2)C(=O)N[C@@H](CC(=O)O)C(=O)N[C@H](C)C(=O)N[C@@H](CC(=O)O)C(=O)NCC(=O)N[C@H](CO)C(=O)N[C@@H]([C@H](C)CC(=O)O)C(=O)N[C@@H](CC(=O)c2ccccc2N)C(=O)O[C@@H]1C (stereo partly shown) | Staphylococcus aureus | planktonic bacterial growth, isothermal microcalorimetry | MSSA | 1.5 µg/mL, 24 h, 37 °C, added: TAG hydrogel | – | peak heat flow time | 0 h |
| CC(C)c1ccc(Nc2n[nH]c3nc(-c4ccccc4)nc(N)c23)cc1 | coxsackievirus B3 | viral cytopathic effect | HeLa | – | – | IC50 | 2.56 µM |
| COc1cc(O)c(-c2cc(-c3cc(-c4c(O)cc5c(c4OC)[C@H](C)N[C@H](C)C5)c4cc(C)cc(OC)c4c3O)c(O)c3c(OC)cc(C)cc23)c2c1[C@H](C)N[C@H](C)C2 | Plasmodium falciparum | asexual parasite proliferation, SYBR Green I fluorescence | clinical isolate SB_05, Mozambique | – | – | IC50 | 0.0573 ± 0.0016 µM |
| Cc1cccc2c1N(C(=O)n1ccnn1)CC2 | Arabidopsis thaliana | – | kai2 mutant, seeds | 100 µM | – | germination rate | 10% and 19.2% and 25.8% and 7.4% and 27.6% and 32.1% |
| COc1ccc(CCO)cc1O | Zika virus | viral replication, CCK-8 | Vero C1008 | 10 µM, 96 h | – | inhibition | 28.7 ± 1.28% |
| O=c1[nH]cc(C(c2ccc(F)cc2)c2c[nH]c(=O)[nH]c2=O)c(=O)[nH]1 | Human immunodeficiency virus 1 | viral replication, inhibitor, ELISA | – | 1 µg/mL | – | inhibition | 20% |
| CN(Cc1ccc(C2(C(F)(F)F)CCC2)cc1)Cc1cccc2ccccc12 | Trichophyton rubrum | microbial growth, disc diffusion | ATCC28188 | 0.128 µg/mL, 6 days | – | inhibition zone | 43.8 mm |
| O=c1[nH]cc(C(c2cccc([N+](=O)[O-])c2)c2c[nH]c(=O)[nH]c2=O)c(=O)[nH]1 | Human immunodeficiency virus 1 | viral replication, inhibitor, ELISA | – | 1 µg/mL | – | inhibition | 42% |
| COc1ccccc1-c1n[nH]c2nc(N[C@H]3CC[C@H](NS(=O)(=O)CC(C)C)CC3)ncc12 | Leishmania donovani | parasite growth | THP-1 | intracellular, amastigote | – | EC50 | 0.0143 µM |
| FC(F)(F)c1cccc(CNc2nc(NC3CCN(Cc4ccccc4)CC3)c3nc[nH]c3n2)c1 | Cryptococcus neoformans | RNA-seq, measured: CNAG_05320 | wild type | 48 µg/mL, 3 h | relative to: untreated wild type | log2 fold change | 0.386 |
| COc1ccc(-c2ccc(C(F)(F)F)cc2)c2c1C(C)=N[C@H](C)C2 | Plasmodium falciparum | parasite growth, SYBR Green | NF54 | blood stage | – | IC50 | 5.11 µM |
| Cc1ccc(-c2nc(N)c3c(Nc4ccc(F)cc4)n[nH]c3n2)cc1F | rhinovirus B42 | viral cytopathic effect | HeLa | – | – | IC50 | 1.69 µM |
| Fc1ccc2c(c1)c1nc3ccc(Br)cc3c-1cn2Cc1cn(-c2ccccc2I)nn1 | Giardia duodenalis trophozoites | UHPLC-Q-TOF-MS metabolomics, measured: 2-hexyldecanoic acid | – | IC50, 0.2142 h | relative to: 0.25% DMSO | fold change | 2.1 |
| Nc1nc(-c2ccccc2)nc2[nH]nc(Nc3cc(F)ccc3F)c12 | rhinovirus B42 | viral cytopathic effect | HeLa | – | – | IC50 | 0.04 µM |
| CC[C@H](C)[C@H](NC(=O)[C@H](Cc1ccc(O)cc1)NC(=O)[C@H](CCC(=O)O)NC(=O)CNC(=O)[C@H](CCC(=O)O)NC(=O)[C@H](CCCCN)NC(=O)[C@H](CCCCN)NC(=O)[C@H](CC(=O)O)NC(=O)[C@H](Cc1c[nH]cn1)NC(=O)[C@H](Cc1c[nH]cn1)NC(=O)[C@H](Cc1c[nH]cn1)NC(=O)[C@H](Cc1c[nH]cn1)NC(=O)[C@H](Cc1c[nH]cn1)NC(=O)[C@H](Cc1c[nH]cn1)NC(=O)[C@H](Cc1c[nH]cn1)NC(=O)[C@H](Cc1c[nH]cn1)NC(=O)[C@H](Cc1c[nH]cn1)NC(=O)[C@@H](N)Cc1c[nH]cn1)C(=O)N[C@@H](CCCCN)C(=O)N[C@@H](CC(C)C)C(=O)N[C@@H](CCCCN)C(=O)N[C@H](C(=O)N[C@H](C(=O)NCC(=O)N[C@@H](CCC(N)=O)C(=O)N[C@@H](CC(=O)O)C(=O)N[C@@H](CO)C(=O)N[C@@H](CO)C(=O)N[C@@H](CCC(=O)O)C(=O)N[C@H](C(=O)N[C@@H](Cc1c[nH]cn1)C(=O)N[C@@H](Cc1ccccc1)C(=O)N[C@@H](CCCCN)C(=O)N[C@H](C(=O)N[C@@H](CCCCN)C(=O)N[C@@H](CCSC)C(=O)N[C@H](C(=O)N[C@H](C(=O)N[C@@H](Cc1c[nH]cn1)C(=O)N[C@@H](CC(C)C)C(=O)N[C@@H](CCCCN)C(=O)N[C@@H](CCCCN)C(=O)N[C@@H](CC(C)C)C(=O)N[C@@H](CCCCN)C(=O)N[C@@H](CCC(=O)O)C(=O)N[C@@H](CO)C(=O)N[C@@H](Cc1ccc(O)cc1)C(=O)N[C@@H](CS)C(=O)N[C@@H](CCC(N)=O)C(=O)N[C@@H](CCCNC(=N)N)C(=O)N[C@@H](CCC(N)=O)C(=O)O)[C@@H](C)O)[C@@H](C)O)C(C)C)[C@@H](C)CC)[C@@H](C)CC)C(C)C | Drosophila melanogaster | – | α-synuclein A53T transgenic | 60 µM, 4 days post eclosion, unit not given | relative to: untreated | climbing mean difference | -14 |
| Nc1nc(-c2ccccc2)nc2[nH]nc(Nc3ccccc3F)c12 | coxsackievirus B3 | viral cytopathic effect | HeLa | – | – | IC50 | 0.12 µM |
| O=c1[nH]cc(C(c2ccccc2Br)c2c[nH]c(=O)[nH]c2=O)c(=O)[nH]1 | Human immunodeficiency virus 1 | viral replication, inhibitor, ELISA | – | 1 µg/mL | – | inhibition | 65% |
| CN(C)c1ccc(Nc2n[nH]c3nc(-c4ccccc4)nc(N)c23)cc1 | rhinovirus B42 | viral cytopathic effect | HeLa | – | – | IC50 | 0.03 µM |
| CC1=CC(OC=C2C(=O)OC3c4ccccc4CC23)OC1=O (racemic) | Striga hermonthica | – | – | – | – | maximum germination | 98% |

Excerpt of the above:
| SMILES | organism | assay | system | conditions | scale | endpoint | value |
| --- | --- | --- | --- | --- | --- | --- | --- |
| CN(C)c1ccc(Nc2n[nH]c3nc(-c4ccccc4)nc(N)c23)cc1 | rhinovirus B42 | viral cytopathic effect | HeLa | – | – | IC50 | 0.03 µM |
| O=c1[nH]cc(C(c2ccccc2Br)c2c[nH]c(=O)[nH]c2=O)c(=O)[nH]1 | Human immunodeficiency virus 1 | viral replication, inhibitor, ELISA | – | 1 µg/mL | – | inhibition | 65% |
| O=c1[nH]cc(C(c2ccc(F)cc2)c2c[nH]c(=O)[nH]c2=O)c(=O)[nH]1 | Human immunodeficiency virus 1 | viral replication, inhibitor, ELISA | – | 1 µg/mL | – | inhibition | 20% |
| COc1ccc(CCO)cc1O | Zika virus | viral replication, CCK-8 | Vero C1008 | 10 µM, 96 h | – | inhibition | 28.7 ± 1.28% |
| CC(C)c1ccc(Nc2n[nH]c3nc(-c4ccccc4)nc(N)c23)cc1 | coxsackievirus B3 | viral cytopathic effect | HeLa | – | – | IC50 | 2.56 µM |
